Results gathered from unrelated publications.
Protocols differ between the studies behind these lines. Numbers after ± are the reported error.

| Substance | cell line | test | system | conditions | scale | measurement | result |
| --- | --- | --- | --- | --- | --- | --- | --- |
| C/C(=N\N=C1/NC(=O)C(C)S1)c1ccccn1 (stereo not shown) | Vero | cell growth or viability, SRB | – | 100 µg/mL, 48 h | – | inhibition | 69.7% |
| CC1(C)S[C@@H]2[C@H](NC(=O)Cc3ccccc3)C(=O)N2[C@H]1C(=O)O | mES-D3 cell | cardiomyocyte differentiation, RT-PCR, measured: MHC | – | 240 h | – | ID50 | 980 ± 24.7 µg/mL |
| CC[C@H](C)[C@H](N)C(=O)N[C@H]1CSSC[C@@H](C(=O)N[C@H](C(N)=O)[C@@H](C)O)NC(=O)[C@H](CCCNC(=N)N)NC(=O)[C@H](Cc2c[nH]cn2)NC(=O)[C@H](Cc2c[nH]cn2)NC(=O)CNC(=O)[C@H](Cc2c[nH]c3ccccc23)NC(=O)[C@H](CC(=O)O)NC(=O)[C@H](CCC(N)=O)NC(=O)[C@H](C(C)C)NC(=O)[C@H](C(C)C)NC1=O | human fetal RPE cells | fluorescence, measured: C5b-9/ApoE | – | 1 µM, together with: 10% human complement serum | baseline: positive control | complement activation | no effect |
| VCTGSC | bovine aortic endothelial cells | – | peptide | 2 µg coated per well, 30 to 60 min | baseline: thrombospondin-coated wells | adherent cells | 3% |
| C[C@](Cc1c[nH]c2ccccc12)(NC(=O)OC1[C@H]2C[C@@H]3C[C@@H](C[C@H]1C3)C2)C(=O)NC[C@H](NC(=O)CCC(=O)O)c1ccccc1 (stereo partly shown) | NCI-H727 | inhibited, antagonist, Fura-2 AM | – | 1 µM, together with: CCK-8 10 nM | – | cytosolic Ca2+ increase | inhibited |
| exonuclease 1 (human) | NIH3T3 | confocal microscopy, measured: YFP-tagged compound | – | concentration not given, PCNA replication foci, together with: co-transfected CFP-PCNA | – | cells with mid S-phase foci | 14% |
| CC(=O)C1S/C(=N/N=C(\C)c2ccccn2)NC1=O (stereo not shown) | Vero | cell proliferation, SRB | – | 100 µg/mL, 48 h | – | inhibition | < 45% |
| CC(C)=CCc1c(-c2ccccc2)n(CC=C(C)C)c2ccccc12 | HEK293 | cell growth or viability | – | 50 µM | – | viability | 105% |
| C[C@H](C(=O)Oc1ccc(-c2cc(=S)ss2)cc1)c1ccc2cc(OC(=O)CCCO[N+](=O)[O-])ccc2c1 | HPDE and BxPC-3 | cell growth | – | 24 h | baseline: HPDE over BxPC-3 | IC50 ratio | ~147 fold |
| CC1(C)CC(=O)C2=C(C1)Nc1cc(Br)ccc1NC2c1ccc(N2CCCCC2)cc1 (stereo not shown) | H4 | cytoprotection | – | together with: thapsigargin 7.5 µM | – | EC50 | 26.3 ± 1.34 µM |
| COc1cccc(-c2cc(=O)c3ccccc3o2)c1N | NRK-52E | immunofluorescence imaging | – | 1 µM, together with: MGA | baseline: control | cell area | 149 ± 12% |
| RXRRXRRXRRXRXB (PMO conjugate) | pLuc705 cells | flow cytometry | peptide | 2 µM, 24 h, serum-free, unit not given | higher = more uptake | cellular uptake | 70 |
| C#C[C@@]1(O)[C@@H](CO)O[C@@H](n2cc(Cl)c3c(N)ncnc32)[C@@H]1O | SR | cell growth or viability, SRB | – | 48 h | – | GI50 | 0.074 µM |
| Cc1ccc(-c2cc3ccccc3[nH]2)cc1 | HEK293 NF-κB luciferase reporter | reporter gene, measured: NF-κB | – | 50 µM, 6 h, together with: TNFα | – | inhibition | 96.6 ± 0.6% |
| Ac-APCRA-NH2 (N-acetyl, C-amide) | GM7373 bovine endothelial | cell proliferation, inhibitor | peptide | 24 h, together with: 0.55 nM FGF2, 0.4% FCS | – | ID50 | 100 µM |
| CSVTCR | bovine aortic endothelial cells | – | peptide | 2 µg coated per well, 30 to 60 min | baseline: thrombospondin-coated wells | adherent cells | 99% |
| COc1cc2ncnc(Nc3cccc(Cl)c3)c2cc1OC | BON | [3H]-thymidine uptake | – | 1 µM, 24 h, pre-treatment, together with: GI hormones, EGF or TGFα | – | cell growth inhibition | inhibited |
| CC1(C)CC(=O)C2=C(C1)Nc1cc(-c3ccccc3)ccc1NC2c1ccc(N2CCOCC2)cc1 (stereo not shown) | H4 | cytoprotection | – | together with: thapsigargin 7.5 µM | – | EC50 | 17 ± 1.41 µM |
| Cc1ccc(NC(=O)c2ccc(CN3CCN(C)CC3)cc2)cc1Nc1nccc(-c2cccnc2)n1 | LNCaP expressing Abi1 Y213F | – | – | 2 µM, 2 h, together with: 10 ng/mL PDGF | – | macropinocytic uptake | decreased |
| CN(C)c1ccc(C2Nc3ccc(C(F)(F)F)cc3NC3=C2C(=O)CCC3)cc1 (stereo not shown) | H4 | cytoprotection | – | together with: thapsigargin 7.5 µM | – | EC50 | > 50 µM |
| c1ccc(C2Cc3ccccc3N2)cc1 (stereo not shown) | HEK293 | cell growth or viability | – | 50 µM | – | viability | 87.9% |
| NC(=O)c1ccc(-c2nc(-c3ccc4c(c3)OCO4)c(-c3ccccn3)[nH]2)cc1 | NIH3T3 | inhibitor, Sirius red staining | – | 5 µM, 48 h, together with: TGF-β1 5 ng/mL | baseline: TGF-β1 alone | collagen content | inhibited |
| CC(C)=CCn1c(-c2ccccc2)cc2ccccc21 | HEK293 | cell growth or viability | – | 50 µM | – | viability | 113% |

| Substance | cell line | test | system | conditions | scale | measurement | result |
| --- | --- | --- | --- | --- | --- | --- | --- |
| Ac-ESLARPCAPGAPAE-NH2 (N-acetyl, C-amide) | GM7373 bovine endothelial | cell proliferation, inhibitor | peptide | 24 h, together with: 0.55 nM FGF2, 0.4% FCS | – | ID50 | 20 µM |
| COc1ccc(/C=C\c2cc(OC)c(OC)c(OC)c2)cc1O | ECFC and ADSC co-culture | endothelial tube formation | – | highest concentration tested | baseline: VEGF 20 ng/mL | maximal cord disruption | > 96% |
| Ac-ARPMA-NH2 (N-acetyl, C-amide) | GM7373 bovine endothelial | cell proliferation, inhibitor | peptide | 24 h, together with: 0.55 nM FGF2, 0.4% FCS | – | ID50 | > 1000 µM |
| CCn1c(=O)c(-c2cc(NC(=O)Nc3ccccc3)c(F)cc2Br)cc2cnc(NC)cc21 | U-118-MG | cell growth or viability | – | – | – | GI50 | 0.269 µM |
| Cc1nc(Nc2ncc(C(=O)Nc3c(C)cccc3Cl)s2)cc(N2CCN(CCO)CC2)n1 | NIH3T3 in PANC/NIH microtissues | fibroblast toxicity | – | 168 h, chronic toxicity, unit not given | baseline: AC50 ATP over AC50 NanoLUC, day 7 | therapeutic window | 3.58 |
| CCN1C(=O)CS/C1=N/N=C(\C)c1ccccn1 | Vero | cell growth or viability, SRB | – | 100 µg/mL, 48 h | – | inhibition | 67.3% |
| CSCC[C@@H]1NC(=O)[C@H](CCCNC(=N)N)NC(=O)[C@H](C(C)C)NC(=O)[C@H](C(C)C)NC(=O)[C@H]([C@@H](C)O)NC(=O)[C@H](Cc2c[nH]c3ccccc23)NC(=O)CNC(=O)[C@H](CO)NC(=O)[C@H](Cc2ccc(O)cc2)NC1=O | MCF7, synchronized | microinjection, time-lapse microscopy | – | 50 µM | – | time in mitosis | 3 h |
| Oc1c(Cl)cc(Cl)cc1Sc1cc(Cl)cc(Cl)c1O | bone marrow-derived macrophages | flow cytometry | – | 10 µM, 6 h, together with: apoptotic Jurkat T cells | baseline: vehicle | efferocytosis | decreased |
| Cn1c(-c2ccccc2)cc2ccccc21 | HEK293 | cell growth or viability | – | 50 µM | – | viability | 106% |
| CCCCN(CCCC)c1ccc(C2Nc3ccc(-c4ccccc4)cc3NC3=C2C(=O)CC(C)(C)C3)cc1 (stereo not shown) | H4 | cytoprotection | – | together with: thapsigargin 7.5 µM | – | EC50 | > 50 µM |
| COC(=O)C[C@](O)(CCCC(C)(C)O)C(=O)O[C@@H]1C(OC)=C[C@]23CCCN2CCc2cc4c(cc2[C@H]13)OCO4 | RS4-11 | – | – | 72 h, together with: cytotoxic drug | below 1 means synergy | combination index | 0.89 ± 0.12 |
| COc1ccc(C(C)=NNC(=O)COc2ccc3c(C)cc(=O)oc3c2C)cc1OC | LPS-stimulated human macrophages | ELISA | conditioned medium | 5.3 µmol/mL, 48 h | baseline: dexamethasone, reduction | TNF-α level | 1.14 fold |
| COc1cccc(-c2cc3ccccc3[nH]2)c1 | HEK293 | cell growth or viability | – | 50 µM | – | viability | 65.8% |
| O=C1c2c(O)ccc(O)c2C(=O)c2c(NCCNCCO)ccc(NCCNCCO)c21 | RS4-11 | – | – | 72 h, together with: cytotoxic drug | below 1 means synergy | combination index | 0.89 ± 0.1 |
| C=C(C[C@H](N)C(=O)O)C(=O)Nc1ccccc1 | MCF7 cells | cell growth inhibition | – | 72 h | baseline: vehicle | lowest significantly active concentration | ≥ 1 µM |
| O=Cc1c(-c2ccccc2)[nH]c2ccccc12 | HEK293 | cell growth or viability | – | 50 µM | – | viability | 139% |
| LRRFSTMPFMFSNINNVSNF | HUVEC | cell migration, real-time cell analysis | peptide | 50 µM, together with: full medium chemoattractant | baseline: vehicle | inhibition | 92.6 ± 0.97% |
| Ac-PARAC-NH2 (N-acetyl, C-amide) | GM7373 bovine endothelial | cell proliferation, inhibitor | peptide | 24 h, together with: 0.55 nM FGF2, 0.4% FCS | – | ID50 | > 1000 µM |
| LRRFSTMPFMFANINNVANF | HUVEC | cell proliferation, WST-1 | peptide | 100 µM, 72 h | baseline: vehicle | inhibition | 48.6 ± 0.53% |
| Ac-GRPCA-NH2 (N-acetyl, C-amide) | GM7373 bovine endothelial | cell proliferation, inhibitor | peptide | 24 h, together with: 0.55 nM FGF2, 0.4% FCS | – | ID50 | 15 µM |
| COc1ccc2cc(-c3cc4ccccc4[nH]3)ccc2c1 | HEK293 NF-κB luciferase reporter | reporter gene, measured: NF-κB | – | 50 µM, 6 h, together with: TNFα | – | inhibition | 94.4 ± 1.6% |
| RBRBRBRBRBRBRBRBB (PMO conjugate) | pLuc705 cells | flow cytometry | peptide | 2 µM, 24 h, serum-free, unit not given | higher = more uptake | cellular uptake | 60 |
| TAGSCLRKFSTM | bovine aortic endothelial cells | – | peptide, NC1 domain-coated plate | 2 µg/mL, 60 min, 37 °C | baseline: no inhibitor | cell adhesion | ~50% |

For quick reference, copied from above:
| Substance | cell line | test | system | conditions | scale | measurement | result |
| --- | --- | --- | --- | --- | --- | --- | --- |
| CSVTCR | bovine aortic endothelial cells | – | peptide | 2 µg coated per well, 30 to 60 min | baseline: thrombospondin-coated wells | adherent cells | 99% |
| COc1cc2ncnc(Nc3cccc(Cl)c3)c2cc1OC | BON | [3H]-thymidine uptake | – | 1 µM, 24 h, pre-treatment, together with: GI hormones, EGF or TGFα | – | cell growth inhibition | inhibited |
| CC1(C)CC(=O)C2=C(C1)Nc1cc(-c3ccccc3)ccc1NC2c1ccc(N2CCOCC2)cc1 (stereo not shown) | H4 | cytoprotection | – | together with: thapsigargin 7.5 µM | – | EC50 | 17 ± 1.41 µM |
| Cc1ccc(NC(=O)c2ccc(CN3CCN(C)CC3)cc2)cc1Nc1nccc(-c2cccnc2)n1 | LNCaP expressing Abi1 Y213F | – | – | 2 µM, 2 h, together with: 10 ng/mL PDGF | – | macropinocytic uptake | decreased |
| CN(C)c1ccc(C2Nc3ccc(C(F)(F)F)cc3NC3=C2C(=O)CCC3)cc1 (stereo not shown) | H4 | cytoprotection | – | together with: thapsigargin 7.5 µM | – | EC50 | > 50 µM |
| c1ccc(C2Cc3ccccc3N2)cc1 (stereo not shown) | HEK293 | cell growth or viability | – | 50 µM | – | viability | 87.9% |
| NC(=O)c1ccc(-c2nc(-c3ccc4c(c3)OCO4)c(-c3ccccn3)[nH]2)cc1 | NIH3T3 | inhibitor, Sirius red staining | – | 5 µM, 48 h, together with: TGF-β1 5 ng/mL | baseline: TGF-β1 alone | collagen content | inhibited |
| CC(C)=CCn1c(-c2ccccc2)cc2ccccc21 | HEK293 | cell growth or viability | – | 50 µM | – | viability | 113% |
